Measured values of several laboratories.
Compare with care: the assays were run in different laboratories. Several values in a cell are separate wells, animals, samples, runs or records.
HDAC1: Histone deacetylase 1 (HDAC1, Homo sapiens, UniProt Q13547)
Chain of UniProt Q13547 (whole entry, looked up): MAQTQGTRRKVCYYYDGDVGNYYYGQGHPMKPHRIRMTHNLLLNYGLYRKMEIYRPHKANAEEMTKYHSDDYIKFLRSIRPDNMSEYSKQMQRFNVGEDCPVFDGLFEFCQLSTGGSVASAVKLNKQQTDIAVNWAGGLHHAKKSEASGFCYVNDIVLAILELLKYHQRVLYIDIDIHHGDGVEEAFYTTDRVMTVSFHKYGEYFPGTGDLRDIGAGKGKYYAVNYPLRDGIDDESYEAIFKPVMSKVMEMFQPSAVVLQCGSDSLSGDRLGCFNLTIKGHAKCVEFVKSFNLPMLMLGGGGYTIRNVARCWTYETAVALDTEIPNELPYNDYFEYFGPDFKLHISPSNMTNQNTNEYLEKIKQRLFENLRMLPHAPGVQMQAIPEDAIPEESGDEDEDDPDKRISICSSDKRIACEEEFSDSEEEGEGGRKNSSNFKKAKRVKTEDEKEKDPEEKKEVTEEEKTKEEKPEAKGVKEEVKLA
SIRT6: NAD-dependent protein deacylase sirtuin-6 (SIRT6, Homo sapiens, UniProt Q8N6T7)
Chain of UniProt Q8N6T7 (whole entry, looked up): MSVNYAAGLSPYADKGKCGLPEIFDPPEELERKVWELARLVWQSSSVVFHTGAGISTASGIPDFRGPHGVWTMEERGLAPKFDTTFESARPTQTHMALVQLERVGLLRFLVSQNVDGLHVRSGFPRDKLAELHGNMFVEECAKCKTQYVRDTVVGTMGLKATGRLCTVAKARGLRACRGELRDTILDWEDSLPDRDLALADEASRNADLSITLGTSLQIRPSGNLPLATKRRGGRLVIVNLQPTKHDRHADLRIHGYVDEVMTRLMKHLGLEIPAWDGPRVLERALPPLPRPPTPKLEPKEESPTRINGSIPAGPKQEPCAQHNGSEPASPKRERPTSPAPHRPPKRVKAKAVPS
Chain of UniProt Q9NR20 (whole entry, looked up): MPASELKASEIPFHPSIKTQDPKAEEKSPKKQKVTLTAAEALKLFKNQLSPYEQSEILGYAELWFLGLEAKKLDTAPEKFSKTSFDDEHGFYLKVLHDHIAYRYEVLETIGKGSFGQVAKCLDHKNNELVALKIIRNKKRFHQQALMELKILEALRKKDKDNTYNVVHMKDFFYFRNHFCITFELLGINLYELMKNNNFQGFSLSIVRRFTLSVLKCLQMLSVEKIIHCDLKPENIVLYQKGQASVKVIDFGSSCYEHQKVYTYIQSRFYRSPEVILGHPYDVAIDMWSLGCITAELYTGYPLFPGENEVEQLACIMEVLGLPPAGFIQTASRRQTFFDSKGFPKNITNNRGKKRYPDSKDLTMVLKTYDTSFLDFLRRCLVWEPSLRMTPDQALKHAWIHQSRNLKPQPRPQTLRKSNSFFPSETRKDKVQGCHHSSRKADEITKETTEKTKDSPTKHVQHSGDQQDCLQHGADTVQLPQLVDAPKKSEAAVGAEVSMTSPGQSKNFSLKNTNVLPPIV
Chain of UniProt P07711 (whole entry, looked up): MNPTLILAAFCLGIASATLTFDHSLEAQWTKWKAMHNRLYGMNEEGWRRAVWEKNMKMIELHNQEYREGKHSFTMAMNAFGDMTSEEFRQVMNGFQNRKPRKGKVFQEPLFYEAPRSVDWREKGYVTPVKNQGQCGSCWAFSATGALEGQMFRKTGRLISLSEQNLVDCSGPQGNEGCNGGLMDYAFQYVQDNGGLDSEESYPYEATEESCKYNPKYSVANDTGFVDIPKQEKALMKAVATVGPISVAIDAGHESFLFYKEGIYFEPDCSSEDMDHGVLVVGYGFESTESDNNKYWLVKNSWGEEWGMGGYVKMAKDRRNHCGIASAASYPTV
Chain of UniProt P10721 (whole entry, looked up): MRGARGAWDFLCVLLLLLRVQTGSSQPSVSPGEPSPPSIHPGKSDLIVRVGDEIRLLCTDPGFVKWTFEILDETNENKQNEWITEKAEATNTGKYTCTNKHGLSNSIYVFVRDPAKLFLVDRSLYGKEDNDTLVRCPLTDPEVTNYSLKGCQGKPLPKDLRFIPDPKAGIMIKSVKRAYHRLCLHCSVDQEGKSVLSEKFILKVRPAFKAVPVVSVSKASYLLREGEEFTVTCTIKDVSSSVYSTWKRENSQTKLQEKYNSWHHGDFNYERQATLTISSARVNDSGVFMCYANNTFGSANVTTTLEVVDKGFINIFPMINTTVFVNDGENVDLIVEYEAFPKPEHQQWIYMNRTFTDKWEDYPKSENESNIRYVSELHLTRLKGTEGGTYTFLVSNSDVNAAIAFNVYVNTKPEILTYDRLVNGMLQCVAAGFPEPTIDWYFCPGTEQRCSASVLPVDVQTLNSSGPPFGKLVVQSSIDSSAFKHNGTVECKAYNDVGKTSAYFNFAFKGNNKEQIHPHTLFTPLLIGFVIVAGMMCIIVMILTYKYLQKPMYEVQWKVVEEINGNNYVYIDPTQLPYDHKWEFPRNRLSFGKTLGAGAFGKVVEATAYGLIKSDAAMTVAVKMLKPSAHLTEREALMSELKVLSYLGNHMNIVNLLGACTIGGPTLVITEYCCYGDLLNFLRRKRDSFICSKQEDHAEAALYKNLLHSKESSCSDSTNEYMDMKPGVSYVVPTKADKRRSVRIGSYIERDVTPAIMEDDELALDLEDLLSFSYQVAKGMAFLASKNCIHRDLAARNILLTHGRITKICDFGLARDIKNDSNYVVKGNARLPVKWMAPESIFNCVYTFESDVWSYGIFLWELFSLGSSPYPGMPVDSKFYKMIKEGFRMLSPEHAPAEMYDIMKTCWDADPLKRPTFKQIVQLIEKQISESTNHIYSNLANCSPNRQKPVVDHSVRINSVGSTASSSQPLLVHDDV
Chain of UniProt Q6P5Z2 (whole entry, looked up): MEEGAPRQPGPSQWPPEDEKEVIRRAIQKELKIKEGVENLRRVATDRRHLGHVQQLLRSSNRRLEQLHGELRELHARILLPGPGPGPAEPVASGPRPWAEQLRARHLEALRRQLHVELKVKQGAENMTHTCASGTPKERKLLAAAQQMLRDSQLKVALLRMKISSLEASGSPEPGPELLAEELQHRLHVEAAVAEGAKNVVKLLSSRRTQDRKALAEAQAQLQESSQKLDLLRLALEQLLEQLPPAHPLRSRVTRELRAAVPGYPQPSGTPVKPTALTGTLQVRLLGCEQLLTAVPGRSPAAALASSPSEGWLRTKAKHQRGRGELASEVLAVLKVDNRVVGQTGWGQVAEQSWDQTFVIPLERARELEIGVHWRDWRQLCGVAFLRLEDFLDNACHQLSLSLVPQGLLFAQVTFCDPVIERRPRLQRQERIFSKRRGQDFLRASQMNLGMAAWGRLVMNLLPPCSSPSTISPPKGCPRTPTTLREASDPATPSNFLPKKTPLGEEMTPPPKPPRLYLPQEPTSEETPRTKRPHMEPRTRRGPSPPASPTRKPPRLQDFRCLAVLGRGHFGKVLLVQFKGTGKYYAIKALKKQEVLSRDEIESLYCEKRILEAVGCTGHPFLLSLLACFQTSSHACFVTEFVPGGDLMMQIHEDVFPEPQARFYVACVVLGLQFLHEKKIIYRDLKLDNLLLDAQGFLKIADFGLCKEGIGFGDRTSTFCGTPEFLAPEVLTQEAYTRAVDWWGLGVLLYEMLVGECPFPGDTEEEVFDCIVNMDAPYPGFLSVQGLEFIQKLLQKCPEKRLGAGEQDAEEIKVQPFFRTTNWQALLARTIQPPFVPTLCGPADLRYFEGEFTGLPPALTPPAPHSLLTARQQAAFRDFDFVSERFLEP
Chain of UniProt P51692 (whole entry, looked up): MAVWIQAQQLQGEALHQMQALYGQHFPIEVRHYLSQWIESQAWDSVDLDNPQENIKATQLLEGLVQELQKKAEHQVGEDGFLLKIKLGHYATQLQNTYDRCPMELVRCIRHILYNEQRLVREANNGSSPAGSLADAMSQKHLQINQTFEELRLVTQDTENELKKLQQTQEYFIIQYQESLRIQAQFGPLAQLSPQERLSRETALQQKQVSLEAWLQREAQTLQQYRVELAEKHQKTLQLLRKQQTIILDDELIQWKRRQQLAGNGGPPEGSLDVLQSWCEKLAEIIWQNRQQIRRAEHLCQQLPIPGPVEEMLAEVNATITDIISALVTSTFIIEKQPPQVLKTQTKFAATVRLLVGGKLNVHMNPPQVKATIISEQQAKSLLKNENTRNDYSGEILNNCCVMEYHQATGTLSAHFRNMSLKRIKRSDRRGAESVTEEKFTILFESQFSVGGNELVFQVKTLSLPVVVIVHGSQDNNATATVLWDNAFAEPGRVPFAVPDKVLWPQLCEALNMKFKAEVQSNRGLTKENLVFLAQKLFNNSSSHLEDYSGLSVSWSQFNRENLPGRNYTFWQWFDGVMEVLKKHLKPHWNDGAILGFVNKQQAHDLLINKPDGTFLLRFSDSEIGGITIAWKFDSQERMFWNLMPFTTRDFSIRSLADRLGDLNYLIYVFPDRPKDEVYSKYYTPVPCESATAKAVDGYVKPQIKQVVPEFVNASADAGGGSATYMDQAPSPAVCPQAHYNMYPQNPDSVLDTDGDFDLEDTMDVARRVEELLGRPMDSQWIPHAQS
Chain of UniProt P51681 (whole entry, looked up): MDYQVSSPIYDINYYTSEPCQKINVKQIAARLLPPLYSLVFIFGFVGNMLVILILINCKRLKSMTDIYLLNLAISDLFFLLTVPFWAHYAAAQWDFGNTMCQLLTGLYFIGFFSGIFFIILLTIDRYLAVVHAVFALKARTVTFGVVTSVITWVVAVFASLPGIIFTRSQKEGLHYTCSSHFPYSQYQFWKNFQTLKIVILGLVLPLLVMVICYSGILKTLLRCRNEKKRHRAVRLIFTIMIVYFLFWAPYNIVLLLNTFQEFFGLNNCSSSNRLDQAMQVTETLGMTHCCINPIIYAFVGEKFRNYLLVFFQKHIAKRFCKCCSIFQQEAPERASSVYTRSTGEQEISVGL
Chain of UniProt P32245 (whole entry, looked up): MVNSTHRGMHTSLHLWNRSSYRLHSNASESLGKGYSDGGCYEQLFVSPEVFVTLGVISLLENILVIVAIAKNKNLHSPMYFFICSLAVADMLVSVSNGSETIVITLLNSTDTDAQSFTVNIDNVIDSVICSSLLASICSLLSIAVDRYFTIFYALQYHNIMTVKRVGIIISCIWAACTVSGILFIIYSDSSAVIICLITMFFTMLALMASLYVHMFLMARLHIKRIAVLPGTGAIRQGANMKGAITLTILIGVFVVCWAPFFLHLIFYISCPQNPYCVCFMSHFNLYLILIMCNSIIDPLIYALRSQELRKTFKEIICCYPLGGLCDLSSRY

| Structure (SMILES) | target | observed | action | technique | tested at | with | inhibition |
| --- | --- | --- | --- | --- | --- | --- | --- |
| C[C@H](CCC(=O)O)[C@H]1CC[C@H]2[C@@H]3[C@H](OS(=O)(=O)O)C[C@@H]4C[C@H](O)CC[C@]4(C)[C@H]3C[C@H](O)[C@]12C | C-C chemokine receptor type 5 (CCR5, Homo sapiens, UniProt P51681) |  |  |  | 100 µM |  | 2% |
| C[Si](C)(C)C[C@@H](CN)CC(=O)O | GABA transporter, rat | binding |  | radioligand binding | 75 µM | [3H]GABA | 0% |
| O=C(O)Cc1ccccc1CC(=O)O | Signal transducer and activator of transcription 5B, SH2 (STAT5B, Homo sapiens, UniProt P51692) | ligand displacement |  | FP | 100 µM |  | -3% |
| CC[C@H](C)[C@@H]1NC(=O)[C@H](Cc2ccccc2C(F)(F)F)NC(=O)CCSCc2cccc(n2)CSCCCNC(=O)[C@H](CCCCCC(=O)O)NC1=O | HDAC1 |  |  |  | 30 µM |  | 30% |
| CCN(CC)CCCC(C)NCc1nn2c(-c3ccccc3)nnc2s1 (centres unmarked) | CREB-binding protein, bromodomain (CREBBP, Homo sapiens, UniProt Q92793) | cell-free assay | inhibitor |  | 50 µM |  | 98.2% |
| C/C=C/C(=O)Nc1ccc2nc(NCCCCCN(C)C)nc(NCCCCCCN(C)C)c2c1 | Histone-lysine N-methyltransferase SUV39H1 (SUV39H1, Homo sapiens, UniProt O43463) | enzyme activity | inhibitor | radiometric | 10 µM |  | 32% |
| C[Si]1(C[C@H](CN)CC(=O)O)CCCC1 | Glutamate receptor ionotropic, NMDA 1 (Grin1, Rattus norvegicus, UniProt P35439) | ligand displacement |  | radioligand | 70 µM |  | -6% |
| NC(=O)c1ccc(C(=O)NOCc2ccccc2)cc1 | SIRT6 | enzyme activity | inhibitor | fluorescence | 100 µM |  | 80.5% |
| COc1cc(OC)c(F)c(/C=C/c2cnc3ccn(S(=O)(=O)c4cn(CCF)cn4)c3n2)c1F | Mast/stem cell growth factor receptor Kit (KIT, Homo sapiens, UniProt P10721) |  |  |  | 1000 nM |  | 7.9% |
| C=CC(=O)Nc1cccc(-c2cnc3[nH]cc(C(=O)NC(C)(C)C)c3n2)c1 | Dual specificity tyrosine-phosphorylation-regulated kinase 4 (DYRK4, Homo sapiens, UniProt Q9NR20) | kinase activity |  |  | 0.1 µM |  | 4% and 3% |
| Cc1ccc(CNC(=O)C(CCc2ccccc2)NC(=O)C(NC(=O)Cc2cccc(Oc3ccccc3)c2)C(C)O)cc1 (centres unmarked) | Procathepsin L (CTSL, Homo sapiens, UniProt P07711) | enzyme activity | inhibitor |  | 100 µM |  | 16% |
| Cc1c(COc2cc(OCc3cccc(C#N)c3)c(CNCCO)cc2Cl)cccc1-c1cccc(OCc2ccc(/C=C/C(=O)NO)cc2)c1 | HDAC1 | enzyme activity | inhibitor |  | 1 µM |  | 9.87% |
| O=C(CN1CCO[C@@H](COc2cccc(Cl)c2)C1)N1CCc2ccccc21 | 5-hydroxytryptamine receptor 2C (HTR2C, Homo sapiens, UniProt P28335) | radioligand binding |  |  | concentration not given | [3H]mesulergine | 48% |
| CCn1cc(C(=O)O)c(=O)c2c(N)c(F)c(NC3CCCCC3)cc21 | Serine/threonine-protein kinase N3 (PKN3, Homo sapiens, UniProt Q6P5Z2) | kinase activity |  |  | 0.1 µM | ATP at Km | 0.6% |
| CCCCCCCCCCCCCC(=S)NCCCC[C@H](NS(C)(=O)=O)C(=O)N[C@H](C)C(=O)N[C@@H](CCCNC(=N)N)C(N)=O | SIRT6 | enzyme activity | inhibitor |  | 10 µM |  | 29% |
| O=C1c2sc(-c3ccc(N4CCC(F)C4)nc3F)nc2CCN1c1cccnc1 (centres unmarked) | Melanocortin receptor 4 (MC4R, Homo sapiens, UniProt P32245) | ligand displacement |  | radioligand | 1 µM |  | -7% |
| CN(Cc1ccc(/C=C/C(=O)NO)cc1)CC12CC3CC(CC(C3)C1)C2 | human A2A receptor | agonist radioligand binding |  |  | 0.05 µM |  | 16% |

Some of these lines once more:
| Structure (SMILES) | target | observed | action | technique | tested at | with | inhibition |
| --- | --- | --- | --- | --- | --- | --- | --- |
| Cc1ccc(CNC(=O)C(CCc2ccccc2)NC(=O)C(NC(=O)Cc2cccc(Oc3ccccc3)c2)C(C)O)cc1 (centres unmarked) | Procathepsin L (CTSL, Homo sapiens, UniProt P07711) | enzyme activity | inhibitor |  | 100 µM |  | 16% |
| C[C@H](CCC(=O)O)[C@H]1CC[C@H]2[C@@H]3[C@H](OS(=O)(=O)O)C[C@@H]4C[C@H](O)CC[C@]4(C)[C@H]3C[C@H](O)[C@]12C | C-C chemokine receptor type 5 (CCR5, Homo sapiens, UniProt P51681) |  |  |  | 100 µM |  | 2% |
